Published values collected from several papers.
Protocols differ between the studies behind these lines. “And” joins repeats or separate records; there may be more than shown. ± gives the spread as reported.
SPT15/TOA1/TOA2/SUA7 1-240; 1-286; 1-122; 1-345: SPT15/TOA1/TOA2/SUA7 1-240; 1-286; 1-122; 1-345 (Saccharomyces cerevisiae)
Fibroin-modulator-binding protein-1: Fibroin-modulator-binding protein-1 99-193 (Bombyx mori, UniProt Q5FBS0)
CGAS: CGAS 161-522 (Homo sapiens, UniProt Q8N884)
Sequence of UniProt Q64663 (whole entry, unmodified, looked up): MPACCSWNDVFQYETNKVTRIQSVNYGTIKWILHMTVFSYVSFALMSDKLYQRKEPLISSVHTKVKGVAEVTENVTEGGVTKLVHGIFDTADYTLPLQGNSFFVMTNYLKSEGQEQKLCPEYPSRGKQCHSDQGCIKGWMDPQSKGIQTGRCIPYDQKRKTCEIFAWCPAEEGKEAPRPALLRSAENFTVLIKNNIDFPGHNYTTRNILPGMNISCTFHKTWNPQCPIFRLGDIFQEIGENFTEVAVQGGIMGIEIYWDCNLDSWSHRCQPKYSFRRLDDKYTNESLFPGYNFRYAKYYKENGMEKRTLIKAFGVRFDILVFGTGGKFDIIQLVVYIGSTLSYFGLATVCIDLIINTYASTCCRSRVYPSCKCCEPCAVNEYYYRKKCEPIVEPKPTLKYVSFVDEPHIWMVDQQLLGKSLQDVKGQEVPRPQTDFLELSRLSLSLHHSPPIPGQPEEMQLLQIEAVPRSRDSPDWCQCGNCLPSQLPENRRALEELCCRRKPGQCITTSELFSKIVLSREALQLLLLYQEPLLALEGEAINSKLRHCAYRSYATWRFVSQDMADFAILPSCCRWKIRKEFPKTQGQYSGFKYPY
Sequence of UniProt Q8N884 (whole entry, unmodified, looked up): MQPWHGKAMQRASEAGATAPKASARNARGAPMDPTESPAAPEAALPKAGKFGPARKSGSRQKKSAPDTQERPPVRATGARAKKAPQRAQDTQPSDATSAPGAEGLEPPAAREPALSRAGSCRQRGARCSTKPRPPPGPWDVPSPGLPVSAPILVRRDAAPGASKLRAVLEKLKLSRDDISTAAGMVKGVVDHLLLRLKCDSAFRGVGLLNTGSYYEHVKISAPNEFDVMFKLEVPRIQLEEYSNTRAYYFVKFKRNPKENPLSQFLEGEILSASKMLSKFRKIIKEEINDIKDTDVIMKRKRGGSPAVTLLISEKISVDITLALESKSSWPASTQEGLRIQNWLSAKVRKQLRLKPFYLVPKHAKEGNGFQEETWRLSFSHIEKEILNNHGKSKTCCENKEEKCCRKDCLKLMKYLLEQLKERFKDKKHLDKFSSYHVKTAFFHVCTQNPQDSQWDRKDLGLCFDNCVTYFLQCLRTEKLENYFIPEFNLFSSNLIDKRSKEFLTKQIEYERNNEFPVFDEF
Sequence of UniProt P42568 (whole entry, looked up): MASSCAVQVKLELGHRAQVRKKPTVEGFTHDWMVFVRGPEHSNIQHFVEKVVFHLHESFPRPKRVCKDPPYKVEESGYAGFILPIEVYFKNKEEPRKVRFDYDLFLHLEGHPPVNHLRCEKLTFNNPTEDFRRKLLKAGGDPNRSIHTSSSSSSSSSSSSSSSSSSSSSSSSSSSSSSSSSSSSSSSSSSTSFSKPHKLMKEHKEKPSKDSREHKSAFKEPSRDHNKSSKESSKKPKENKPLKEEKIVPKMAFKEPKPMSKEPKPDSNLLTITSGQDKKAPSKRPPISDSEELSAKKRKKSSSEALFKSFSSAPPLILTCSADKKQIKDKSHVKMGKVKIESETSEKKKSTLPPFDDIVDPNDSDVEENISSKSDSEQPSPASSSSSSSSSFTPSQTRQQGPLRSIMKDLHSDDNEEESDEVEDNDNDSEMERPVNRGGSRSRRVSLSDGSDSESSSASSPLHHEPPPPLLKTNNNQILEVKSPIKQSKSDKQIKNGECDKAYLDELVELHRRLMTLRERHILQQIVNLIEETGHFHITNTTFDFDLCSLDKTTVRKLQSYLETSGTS
Sequence of UniProt Q9H2U1 (whole entry, looked up): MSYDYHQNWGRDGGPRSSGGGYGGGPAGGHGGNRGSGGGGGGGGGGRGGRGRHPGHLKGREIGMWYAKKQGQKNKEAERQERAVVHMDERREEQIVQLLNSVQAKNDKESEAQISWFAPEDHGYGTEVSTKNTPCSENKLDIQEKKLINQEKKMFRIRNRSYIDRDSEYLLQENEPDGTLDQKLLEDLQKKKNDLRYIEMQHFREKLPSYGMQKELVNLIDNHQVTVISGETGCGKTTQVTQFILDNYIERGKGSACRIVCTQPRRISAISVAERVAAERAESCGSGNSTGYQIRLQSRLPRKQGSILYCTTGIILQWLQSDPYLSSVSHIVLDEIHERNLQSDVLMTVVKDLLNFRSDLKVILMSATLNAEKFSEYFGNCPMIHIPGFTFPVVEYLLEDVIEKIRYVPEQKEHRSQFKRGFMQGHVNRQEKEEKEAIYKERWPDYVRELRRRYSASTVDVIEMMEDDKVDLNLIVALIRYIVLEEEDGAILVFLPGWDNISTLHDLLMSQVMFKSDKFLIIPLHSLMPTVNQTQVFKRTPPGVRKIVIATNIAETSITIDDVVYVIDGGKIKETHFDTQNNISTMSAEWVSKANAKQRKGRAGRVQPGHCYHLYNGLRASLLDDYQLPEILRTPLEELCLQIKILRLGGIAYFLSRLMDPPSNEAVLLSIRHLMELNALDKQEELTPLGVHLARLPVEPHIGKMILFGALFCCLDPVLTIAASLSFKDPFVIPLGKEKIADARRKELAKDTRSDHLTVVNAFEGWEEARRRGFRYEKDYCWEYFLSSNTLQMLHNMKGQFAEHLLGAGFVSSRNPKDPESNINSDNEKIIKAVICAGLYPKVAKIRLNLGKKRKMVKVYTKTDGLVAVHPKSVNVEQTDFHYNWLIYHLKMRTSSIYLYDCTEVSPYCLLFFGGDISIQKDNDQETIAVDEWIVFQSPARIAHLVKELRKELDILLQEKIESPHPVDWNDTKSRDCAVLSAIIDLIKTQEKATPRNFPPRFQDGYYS
Sequence of UniProt P55265 (whole entry, looked up): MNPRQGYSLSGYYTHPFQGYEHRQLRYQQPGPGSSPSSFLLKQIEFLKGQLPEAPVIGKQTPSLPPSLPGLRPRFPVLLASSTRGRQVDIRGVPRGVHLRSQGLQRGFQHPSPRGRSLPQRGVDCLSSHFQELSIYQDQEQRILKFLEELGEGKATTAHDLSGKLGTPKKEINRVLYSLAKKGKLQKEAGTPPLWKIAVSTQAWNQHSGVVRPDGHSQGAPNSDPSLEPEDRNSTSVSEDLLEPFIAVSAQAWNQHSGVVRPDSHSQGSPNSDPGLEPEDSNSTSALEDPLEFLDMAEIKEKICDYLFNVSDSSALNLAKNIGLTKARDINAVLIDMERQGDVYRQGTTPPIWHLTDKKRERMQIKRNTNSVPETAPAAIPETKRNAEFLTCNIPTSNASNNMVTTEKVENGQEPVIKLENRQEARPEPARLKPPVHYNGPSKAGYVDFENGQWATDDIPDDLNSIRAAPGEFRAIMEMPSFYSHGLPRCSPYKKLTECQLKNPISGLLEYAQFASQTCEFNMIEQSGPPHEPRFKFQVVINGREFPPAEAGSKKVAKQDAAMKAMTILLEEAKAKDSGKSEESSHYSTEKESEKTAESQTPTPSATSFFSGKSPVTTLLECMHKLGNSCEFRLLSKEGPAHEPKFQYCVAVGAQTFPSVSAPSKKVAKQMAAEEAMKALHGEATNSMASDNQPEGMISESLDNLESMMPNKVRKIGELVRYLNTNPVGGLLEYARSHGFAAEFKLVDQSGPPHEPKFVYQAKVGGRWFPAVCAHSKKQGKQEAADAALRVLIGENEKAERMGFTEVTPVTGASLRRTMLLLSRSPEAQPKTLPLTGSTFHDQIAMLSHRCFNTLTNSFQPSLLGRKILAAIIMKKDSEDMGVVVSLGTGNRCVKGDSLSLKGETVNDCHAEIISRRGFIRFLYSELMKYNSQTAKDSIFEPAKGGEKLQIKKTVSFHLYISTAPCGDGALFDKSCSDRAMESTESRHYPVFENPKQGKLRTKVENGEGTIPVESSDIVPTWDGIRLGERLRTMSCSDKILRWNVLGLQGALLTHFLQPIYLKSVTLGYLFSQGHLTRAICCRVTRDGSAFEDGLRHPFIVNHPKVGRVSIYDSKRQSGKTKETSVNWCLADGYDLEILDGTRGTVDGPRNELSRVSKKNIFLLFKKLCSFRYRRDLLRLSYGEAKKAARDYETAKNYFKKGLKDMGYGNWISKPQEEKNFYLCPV
Sequence of UniProt P25454 (whole entry, unmodified, looked up): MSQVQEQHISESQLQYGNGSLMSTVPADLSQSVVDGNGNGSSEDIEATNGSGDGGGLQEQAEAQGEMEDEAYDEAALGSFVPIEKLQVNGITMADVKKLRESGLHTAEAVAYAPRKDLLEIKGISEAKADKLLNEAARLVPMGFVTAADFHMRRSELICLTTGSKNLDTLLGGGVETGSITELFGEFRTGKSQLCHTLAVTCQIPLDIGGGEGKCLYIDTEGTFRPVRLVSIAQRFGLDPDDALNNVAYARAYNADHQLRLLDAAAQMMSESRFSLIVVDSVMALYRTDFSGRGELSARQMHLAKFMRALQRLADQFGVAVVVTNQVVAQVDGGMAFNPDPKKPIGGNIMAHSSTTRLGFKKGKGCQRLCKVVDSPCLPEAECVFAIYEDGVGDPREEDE
Sequence of UniProt Q8IUX4 (whole entry, looked up): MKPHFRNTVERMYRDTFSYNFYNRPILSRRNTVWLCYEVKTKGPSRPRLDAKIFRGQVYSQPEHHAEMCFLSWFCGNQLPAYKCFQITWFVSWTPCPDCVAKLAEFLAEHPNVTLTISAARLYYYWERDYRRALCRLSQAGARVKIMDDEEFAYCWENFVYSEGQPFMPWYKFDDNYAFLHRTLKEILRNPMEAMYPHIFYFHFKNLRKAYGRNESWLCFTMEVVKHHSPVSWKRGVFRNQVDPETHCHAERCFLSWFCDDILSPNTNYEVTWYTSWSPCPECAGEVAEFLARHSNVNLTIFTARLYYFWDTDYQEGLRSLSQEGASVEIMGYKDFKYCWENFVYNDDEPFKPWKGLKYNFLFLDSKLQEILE
Sequence of UniProt P0ACN4 (whole entry, looked up): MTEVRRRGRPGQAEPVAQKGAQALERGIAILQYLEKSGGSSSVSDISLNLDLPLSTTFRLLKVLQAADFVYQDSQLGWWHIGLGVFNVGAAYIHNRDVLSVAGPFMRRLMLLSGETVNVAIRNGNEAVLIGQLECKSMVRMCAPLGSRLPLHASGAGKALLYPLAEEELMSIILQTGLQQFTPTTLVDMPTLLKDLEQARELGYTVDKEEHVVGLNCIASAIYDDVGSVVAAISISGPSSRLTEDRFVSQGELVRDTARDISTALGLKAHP

Molecule | target or system | assay | test system | setting | how to read | quantity | value
TCCTGAAGAGGCGCCCTAGCTTGGTCCTATCGTCGTCAAGTCAATCGGTCC (dsDNA; 5'-amino-C6 primer) | SPT15/TOA1/TOA2/SUA7 1-240; 1-286; 1-122; 1-345 | array | double-stranded DNA, one strand shown | TBP:TFIIA:TFIIB ternary complex | – | Kd | 2.06 ± 0.59 nM
CGCGCG (XNA; fully LNA blunt duplex) | ADAR 133-199 (Homo sapiens, UniProt P55265) | NMR | modified nucleic acid, one strand shown | – | – | Kd | 7330 ± 3320 nM
TCCTGAAGGGGAGCCTATAAAAGGTCCTATCGTCGTCAAGTCAATCGGTCC (dsDNA; 5'-amino-C6 primer) | SPT15/TOA1/TOA2/SUA7 1-240; 1-286; 1-122; 1-345 | array | double-stranded DNA, one strand shown | TBP:TFIIA:TFIIB ternary complex | – | Kd | 2.47 ± 0.3 nM
GSGAGRETEV | human SCRIB PDZ3-4 tandem (MBP fusion) | automated holdup | peptide, crude extract | concentration not given, uncorrected, unit not given | relative to: biotin control resin, higher = stronger binding | binding intensity | 0.977
GTGTGGTTAATATGGTGTGGTTAATATGGTGTGGTTAATATGGTGTGGTTAATATG (dsDNA) | RNJ 604-911 (Arabidopsis thaliana, UniProt Q84W56) | EMSA | double-stranded DNA, one strand shown | – | – | Kd | 298 nM
UUAUCUU (ssRNA) | MLLT3 1-140 (Homo sapiens, UniProt P42568) | fluorescence polarization | RNA | – | – | Kd | 48 ± 5 nM
ACEQNPIYWARYADWLFTTPLLLLDLALLVDADEGT | – | ex vivo fluorescence imaging | peptide, BALB/c mice, 4T1 tumour-bearing, 4T1 tumour | intravenous, 5 nmol, 24 h post-injection | higher = more uptake | mean fluorescence intensity | 1290 ± 290 a.u.
AACAAACAAACA (dsDNA) | Fibroin-modulator-binding protein-1 | ITC | double-stranded DNA, one strand shown | – | – | Kd | 4930 ± 362 nM
DNA 1 CACTGGCCGTCTTACGGTCGCTCTGCTCGACG / DNA 2 CGACCGTAAGACGGCCAGTG (dsDNA; 20 bp, 3' 12 nt overhang) | RECQL 63-592 F322A (Bos taurus, UniProt A0JN36) | fluorescence anisotropy | double-stranded DNA | added: Mg2+ 3 mM | – | Kd | 43.6 ± 6.4 nM
TACTTCAGTTGTGAAGTGTAACAAGGTCTTATAATTCAAGTCAATCGGTCC (dsDNA; 5'-amino-C6 primer) | SPT15/TOA1/TOA2/SUA7 1-240; 1-286; 1-122; 1-345 | array | double-stranded DNA, one strand shown | TBP:TFIIA:TFIIB ternary complex | – | Kd | 3.68 ± 0.7 nM
FNA / CGLSGLGVA-NH2 ([18F]FNA-labelled, C-amide) | – | gamma counting | peptide, healthy mice, skull bone | 60 min | – | tissue uptake | 0.43 %ID/g
ATTCATTCATTC (dsDNA) | Fibroin-modulator-binding protein-1 | ITC | double-stranded DNA, one strand shown | – | – | Kd | 655 ± 80.3 nM
AAAGAAAGAAAGAAAGAAAGAAAG (ssDNA) | CGAS | fluorescence anisotropy | single-stranded DNA | – | – | Kd | 2440 ± 850 nM
AGCGTCACAGACATGAAATTGGTAAGACCAATTGACTTCGGCAAGTGGCTTAAGACAGGAA (dsDNA) | allR full length assumed (Escherichia coli, UniProt P0ACN4) | BLI | double-stranded DNA, one strand shown | – | – | Kd | 1570 nM
ATGTCACAGAAGCAAAGTACGAATCAGAATCAAAATCAAGTCAATCGGTCC (dsDNA; 5'-amino-C6 primer) | SPT15/TOA1/TOA2/SUA7 1-240; 1-286; 1-122; 1-345 | array | double-stranded DNA, one strand shown | TBP:TFIIA:TFIIB ternary complex | – | Kd | 1.92 ± 0.31 nM
GSGAGPETLV | human MAGI1-3/6 PDZ construct (MBP fusion) | automated holdup | peptide, crude extract | concentration not given, corrected by standard peak, unit not given | relative to: biotin control resin, higher = stronger binding | binding intensity | 0.595
GAATTCCTATGAAGTAATGTGGAGCTCCGTTCGTCTCAAGTCAATCGGTCC (dsDNA; 5'-amino-C6 primer) | SPT15/TOA1/TOA2/SUA7 1-240; 1-286; 1-122; 1-345 | array | double-stranded DNA, one strand shown | TBP:TFIIA:TFIIB ternary complex | – | Kd | 2.25 ± 0.36 nM
AGAAAGAAAGAA (dsDNA) | Fibroin-modulator-binding protein-1 | ITC | double-stranded DNA, one strand shown | – | – | Kd | 3480 ± 348 nM
GACCGGAAGTGG (dsDNA) | ERF 22-140 C72S (Homo sapiens, UniProt P50548) | fluorescence anisotropy | double-stranded DNA, one strand shown | 50 nM DNA | – | Kd | 90 ± 16 nM

Molecule | target or system | assay | test system | setting | how to read | quantity | value
TTTTTTTTTTTTTTTTTTTTTTTTTTTTTTTTTTTTTTTTTTTTTTTTTTTTTTTTTTTTTTTTTTTTTT (ssDNA) | RAD51 full length assumed Y112S/Y253L (Saccharomyces cerevisiae, UniProt P25454) | fluorescence anisotropy | single-stranded DNA | apparent, Hill fit, added: ATP | – | Kd | 690 ± 110 nM
ATCAATCAATCA (dsDNA) | Fibroin-modulator-binding protein-1 | ITC | double-stranded DNA, one strand shown | – | – | Kd | 2620 ± 582 nM
11-deoxycorticosterone | – | stopped-flow global kinetic fitting | – | 4-state closed model (best), 40-fold adrenodoxin excess, added: substrate binding k-3 | – | rate constant | 242 ± 0.468 min⁻¹
ATGATTACTAATTCTTAACATTCGAGTTCAATCTCTCAAGTCAATCGGTCC (dsDNA; 5'-amino-C6 primer) | SPT15/TOA1/TOA2/SUA7 1-240; 1-286; 1-122; 1-345 | array | double-stranded DNA, one strand shown | TBP:TFIIA:TFIIB ternary complex | – | Kd | 3.28 ± 0.9 nM
AAAGAAAGAAAGAAAGAAAGAAAGAAAGAAAGAAAGAAAGAAAGAAAGAAAGAAAGAAAG (ssRNA) | CGAS 161-522 K394E (Homo sapiens, UniProt Q8N884) | fluorescence anisotropy | RNA | – | – | Kd | 2290 ± 250 nM
ATTTATATTATTTATTCATATTTATATTTA (ssDNA) | APOBEC3F full length assumed (Homo sapiens, UniProt Q8IUX4) | EMSA | single-stranded DNA | – | – | Kd | 1100 ± 335 nM
TAAGACACGATGCGATAAAATCTG (dsDNA) | CGAS | fluorescence anisotropy | double-stranded DNA, one strand shown | – | – | Kd | 1510 ± 380 nM
TCGATCGATCGA (dsDNA) | Fibroin-modulator-binding protein-1 | ITC | double-stranded DNA, one strand shown | – | – | Kd | 2670 ± 128 nM
CTGGGAGGGGCGCCGGGGGCGGGGCCTCGGGCT (G-quadruplex DNA (Homo sapiens); hybrid G4) | DHX36 full length assumed (Homo sapiens, UniProt Q9H2U1) | BLI | folded DNA | – | – | Kd | 99.8 nM
GTGGGTGGGTGG (dsDNA) | Fibroin-modulator-binding protein-1 | ITC | double-stranded DNA, one strand shown | – | – | Kd | 6880 nM
ACDDQNPWRAYLDLLFPTDTLLLDLLW | – | ex vivo fluorescence imaging | peptide, BALB/c mice, 4T1 tumour-bearing, 4T1 tumour | intravenous, 5 nmol, 4 h post-injection | higher = more uptake | mean fluorescence intensity | 5810 ± 880 a.u.
DNA 1 TGGGTGGGTAGGGTGGGTAGGGGAGGAT / DNA 2 ATCCTCCCCTA (DNA; intramolecular parallel G4, 5' overhang, 11-bp duplex) | REV1 330-833 N373S (Homo sapiens, UniProt Q9UBZ9) | FP | folded DNA | KCl 100 mM | – | Kd | 1.8 ± 0.6 nM
Peginesatide | UT7/EPO | RT-qPCR, measured: THBS1 | – | concentration not given, 90 min, normalized to HPRT1 | relative to: vehicle | mRNA level | 2.3 fold
ACAGACAGACAG (dsDNA) | Fibroin-modulator-binding protein-1 | ITC | double-stranded DNA, one strand shown | – | – | Kd | 6110 ± 982 nM
CTCAGGAATTCCTGTAAAGTAATGTGGAGCTCAGTTCAAGTCAATCGGTCC (dsDNA; 5'-amino-C6 primer) | SPT15/TOA1/TOA2/SUA7 1-240; 1-286; 1-122; 1-345 | array | double-stranded DNA, one strand shown | TBP:TFIIA:TFIIB ternary complex | – | Kd | 2.42 ± 0.32 nM
colistin | Pseudomonas aeruginosa | broth microdilution | clinical isolate RKI-No_216/16 | – | – | MIC | 1 µg/mL
CTGACTGACTGA (dsDNA) | Fibroin-modulator-binding protein-1 | ITC | double-stranded DNA, one strand shown | – | – | Kd | 5370 ± 543 nM
BzATP | P2X purinoceptor 7 (P2rx7, Rattus norvegicus, UniProt Q64663, R125A) | ion current, agonist, two-electrode voltage clamp | Xenopus oocytes | 3.704 µM | – | normalized current | 0.552 and 0.571 and 0.451
CTCAGGAATTCCTATCAAGTAATGTGGAGCTCAGTTCAAGTCAATCGGTCC (dsDNA; 5'-amino-C6 primer) | SPT15/TOA1/TOA2/SUA7 1-240; 1-286; 1-122; 1-345 | array | double-stranded DNA, one strand shown | TBP:TFIIA:TFIIB ternary complex | – | Kd | 2.13 ± 0.33 nM

Repeated from above:
Molecule | target or system | assay | test system | setting | how to read | quantity | value
TAAGACACGATGCGATAAAATCTG (dsDNA) | CGAS | fluorescence anisotropy | double-stranded DNA, one strand shown | – | – | Kd | 1510 ± 380 nM
TCGATCGATCGA (dsDNA) | Fibroin-modulator-binding protein-1 | ITC | double-stranded DNA, one strand shown | – | – | Kd | 2670 ± 128 nM
CTGGGAGGGGCGCCGGGGGCGGGGCCTCGGGCT (G-quadruplex DNA (Homo sapiens); hybrid G4) | DHX36 full length assumed (Homo sapiens, UniProt Q9H2U1) | BLI | folded DNA | – | – | Kd | 99.8 nM
GTGGGTGGGTGG (dsDNA) | Fibroin-modulator-binding protein-1 | ITC | double-stranded DNA, one strand shown | – | – | Kd | 6880 nM
ACDDQNPWRAYLDLLFPTDTLLLDLLW | – | ex vivo fluorescence imaging | peptide, BALB/c mice, 4T1 tumour-bearing, 4T1 tumour | intravenous, 5 nmol, 4 h post-injection | higher = more uptake | mean fluorescence intensity | 5810 ± 880 a.u.
